{"data": "Measured values from different studies", "note": "Every numbered part comes from another study and shows a few of its results, in no order."}
{"data": "Sample 1", "target": "Sal-like protein 4, full length isoform A (SALL4, Homo sapiens, UniProt Q9UJQ4, residues 1-1053)", "method": "universal PBM", "molecule type": "double-stranded DNA, one strand shown", "matrix": "in vitro", "concentration": "600 nM", "setting": "8-mer, flanks averaged, mean of replicates", "reading": "higher = stronger binding", "chain of UniProt Q9UJQ4 (whole entry, looked up)": "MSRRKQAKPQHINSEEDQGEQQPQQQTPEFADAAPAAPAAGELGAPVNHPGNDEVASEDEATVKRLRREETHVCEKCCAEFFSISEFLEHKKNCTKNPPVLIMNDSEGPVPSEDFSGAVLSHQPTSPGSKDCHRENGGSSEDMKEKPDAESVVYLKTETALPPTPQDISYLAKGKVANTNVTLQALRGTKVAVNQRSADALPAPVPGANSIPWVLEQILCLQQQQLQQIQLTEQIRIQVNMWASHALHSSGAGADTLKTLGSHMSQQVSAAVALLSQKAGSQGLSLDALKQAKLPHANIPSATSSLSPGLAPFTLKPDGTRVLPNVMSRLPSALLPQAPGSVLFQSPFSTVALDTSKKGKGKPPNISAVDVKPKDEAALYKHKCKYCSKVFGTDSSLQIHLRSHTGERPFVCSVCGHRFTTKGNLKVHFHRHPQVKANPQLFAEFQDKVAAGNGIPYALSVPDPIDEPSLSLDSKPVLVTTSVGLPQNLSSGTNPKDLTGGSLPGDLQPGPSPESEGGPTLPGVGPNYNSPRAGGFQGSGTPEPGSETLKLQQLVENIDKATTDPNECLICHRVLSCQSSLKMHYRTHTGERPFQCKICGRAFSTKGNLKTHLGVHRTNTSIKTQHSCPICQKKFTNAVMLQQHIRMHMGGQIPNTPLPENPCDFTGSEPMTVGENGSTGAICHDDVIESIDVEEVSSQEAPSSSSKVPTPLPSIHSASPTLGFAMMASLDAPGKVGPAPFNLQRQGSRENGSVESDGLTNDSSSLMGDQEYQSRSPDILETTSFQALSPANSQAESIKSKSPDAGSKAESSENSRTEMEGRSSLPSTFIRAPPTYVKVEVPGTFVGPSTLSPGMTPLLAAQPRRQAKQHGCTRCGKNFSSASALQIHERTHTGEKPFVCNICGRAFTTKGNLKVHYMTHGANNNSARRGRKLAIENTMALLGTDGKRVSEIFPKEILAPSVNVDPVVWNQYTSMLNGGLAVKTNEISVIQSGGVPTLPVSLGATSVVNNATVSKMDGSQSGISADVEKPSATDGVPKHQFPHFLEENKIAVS"}
{"Sequence": "GTGTTCGA", "E-score": -0.0895}
{"Sequence": "ACGTTACC", "E-score": -0.123}
{"Sequence": "AATCAAGA", "E-score": 0.212}
{"Sequence": "GCCTTAAA", "E-score": -0.066}
{"Sequence": "TAACGGTA", "E-score": 0.112}
{"Sequence": "ATGCTCGC", "E-score": -0.124}
{"Sequence": "CTGGGGGC", "E-score": -0.409}
{"Sequence": "CGCAGTTC", "E-score": -0.21}
{"data": "Sample 2", "target": "RNA binding protein fox-1 homolog 2, RRM domain, GST-SBP tag (RBFOX2, Homo sapiens, UniProt O43251-10, residues 100-194)", "method": "RNA Bind-n-Seq", "molecule type": "RNA", "matrix": "in vitro", "concentration": "365 nM", "setting": "natural RNA segment, single round, ends assumed", "baseline": "no-protein control", "reading": "higher = stronger binding", "all sequences stand within": "GGGAGUUCUACAGUCCGACGAUC … UGGAAUUCUCGGGUGCCAA", "Construct (chain)": "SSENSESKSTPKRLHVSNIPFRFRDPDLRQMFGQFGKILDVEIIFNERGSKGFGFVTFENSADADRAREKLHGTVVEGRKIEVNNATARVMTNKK"}
{"Sequence": "CUGGGUAUUUUUGUUUUUGUUUAGUUUUAGGUUUACAACAGAGAGGAAUUAAUUUAUCAGCAGCCUAAAACUGUUGUGUUUUUCUUAUGGUUUAAAAAACGCCAUGUCAU", "RBNS enrichment (R)": 1.19}
{"Sequence": "GGCAUGAUGGUUGCUACAGUGCUCUUUCUCCCAUGAAGUCUUUGCUUUUAUAUCAGUGCCUUAUCUGUUAAGCUCCUGGAGGAAAGCCCCCUAUUCUAGAUCUUUAUGUG", "RBNS enrichment (R)": 0.863}
{"Sequence": "GCUCCCUGCCAGCCUCCAGUGGCCUGGCCAGGCCCUCCCGAGCCUGUCUGCCCUCCCCAGGGGUGGAGGAGUCUCUGGGCCCCAGGAGGAUUCCCUCCCGGAGACUCGCA", "RBNS enrichment (R)": 0.701}
{"Sequence": "UUGCAUCUGCUUUUCCUGUAAGACUCCACUGUGCACUGGCAUCCAGAGAAGGUGUCUUUGGAGUUCACACAGCACACACUGUGCACAGAAGGCCUCCCCAUCUGGGAAAU", "RBNS enrichment (R)": 0.458}
{"Sequence": "CUAGGCAACAUGAUGGGGACCCUCCCCAUUCUUCAUAAAAAUCCCCUCAAGAUCCUCAAGUUGAAUGUUUUGUAGAUCUUCAAGGAUAAGCCUUCUGCUUAUUCUCCUAG", "RBNS enrichment (R)": 2.2}
{"Sequence": "AGCAAUCCGCCCACCUUGACUUCCCAAAGUGCUGGGAUUAUGGGCGGGUGUGAGCCAUUGCGCCCAGCCUUGAAGUCAUGUUCUAAAUUGUAUUUGAAUUUGUGCCUCUU", "RBNS enrichment (R)": 0.227}
{"Sequence": "GCUGCCAUCCCCUCCCCGUUUCAGUGGACCCUGUGGCCAGGUGCUUUUCCCUAUCCACAGGGGUGUUUGUGUGUGUGCGCGUGUGCGUUUCAAUAAAGUUUGUACACUUU", "RBNS enrichment (R)": 1.49}
{"Sequence": "AGUCGUGUGGGUCGAGGAUUCUGUGCCUCCAGGACCAGGGGCCCACCCUCUGCCCAGGGAGUCCUUGCGUCCCAUGAGGUCUUCCCGCAAGGCCUCUCAGACCCAGAUGU", "RBNS enrichment (R)": 0.308}
{"Sequence": "AAUUAUCAGGGAUUUUAUGUAUUGUACAUAGAUGACAAUAGGAAAUUGUUUAUUUCAAGAAAUAGCUUUGUUACAGUAAAAUAUUUGUCAUUUAAAACCCAGCUGUUUAG", "RBNS enrichment (R)": 0.463}
{"Sequence": "AGAGUGUCCACCGGGCACCCGCCUCUGCCGGCCCCCCGCCGGGCGCCCCAACCCCAAUUUCUGGAGCUGCAGCCGUCCCGCGCCCCACCCAAGGUGGGCGCCUUCCCCUC", "RBNS enrichment (R)": 0.277}
{"data": "Sample 3", "target": "Protein max, full length (MAX, Homo sapiens, UniProt P61244-2, residues 1-151)", "method": "protein-binding microarray", "molecule type": "double-stranded DNA, one strand shown", "matrix": "in vitro", "concentration": "not given", "setting": "k-mer, scored over probes, only values ≥0.25", "reading": "higher = stronger binding"}
{"Sequence": "CAACATGC", "E-score": 0.355}
{"Sequence": "CCGCATGC", "E-score": 0.438}
{"Sequence": "ACCCACGC", "E-score": 0.409}
{"Sequence": "CGCACACA", "E-score": 0.283}
{"Sequence": "ACACCTGA", "E-score": 0.266}
{"Sequence": "CATGGTGC", "E-score": 0.381}
{"Sequence": "CACGCGAC", "E-score": 0.444}
{"Sequence": "CAAGGTGG", "E-score": 0.257}
{"data": "Single results of other studies"}
{"Molecule": "PhoQ, residues 284 288 289 292 302 303 NLSRDF", "target": "PhoP, residues 12 14 15 18 19 IQFRS (Escherichia coli, UniProt P23836)", "test": "Sort-seq, refers to: YFP reporter", "system": "E. coli", "conditions": "PhoQ-PhoP variant library, added: 10 µM Mg2+", "how to read": "baseline: high Mg2+ state, higher = stronger signaling", "quantity": "fold induction", "value": 6.63}
{"note": "Repeated from above (sample 2):"}
{"Sequence": "AAUUAUCAGGGAUUUUAUGUAUUGUACAUAGAUGACAAUAGGAAAUUGUUUAUUUCAAGAAAUAGCUUUGUUACAGUAAAAUAUUUGUCAUUUAAAACCCAGCUGUUUAG", "RBNS enrichment (R)": 0.463}
{"Sequence": "CUGGGUAUUUUUGUUUUUGUUUAGUUUUAGGUUUACAACAGAGAGGAAUUAAUUUAUCAGCAGCCUAAAACUGUUGUGUUUUUCUUAUGGUUUAAAAAACGCCAUGUCAU", "RBNS enrichment (R)": 1.19}
{"Sequence": "CUAGGCAACAUGAUGGGGACCCUCCCCAUUCUUCAUAAAAAUCCCCUCAAGAUCCUCAAGUUGAAUGUUUUGUAGAUCUUCAAGGAUAAGCCUUCUGCUUAUUCUCCUAG", "RBNS enrichment (R)": 2.2}
{"Sequence": "AGUCGUGUGGGUCGAGGAUUCUGUGCCUCCAGGACCAGGGGCCCACCCUCUGCCCAGGGAGUCCUUGCGUCCCAUGAGGUCUUCCCGCAAGGCCUCUCAGACCCAGAUGU", "RBNS enrichment (R)": 0.308}
